{"data": "Assay results collected from several papers", "MAL12": "Alpha-glucosidase MAL12 (MAL12, Saccharomyces cerevisiae S288c, UniProt P53341)", "note": "± gives the spread as reported.", "chain of UniProt P53341 (whole entry, looked up)": "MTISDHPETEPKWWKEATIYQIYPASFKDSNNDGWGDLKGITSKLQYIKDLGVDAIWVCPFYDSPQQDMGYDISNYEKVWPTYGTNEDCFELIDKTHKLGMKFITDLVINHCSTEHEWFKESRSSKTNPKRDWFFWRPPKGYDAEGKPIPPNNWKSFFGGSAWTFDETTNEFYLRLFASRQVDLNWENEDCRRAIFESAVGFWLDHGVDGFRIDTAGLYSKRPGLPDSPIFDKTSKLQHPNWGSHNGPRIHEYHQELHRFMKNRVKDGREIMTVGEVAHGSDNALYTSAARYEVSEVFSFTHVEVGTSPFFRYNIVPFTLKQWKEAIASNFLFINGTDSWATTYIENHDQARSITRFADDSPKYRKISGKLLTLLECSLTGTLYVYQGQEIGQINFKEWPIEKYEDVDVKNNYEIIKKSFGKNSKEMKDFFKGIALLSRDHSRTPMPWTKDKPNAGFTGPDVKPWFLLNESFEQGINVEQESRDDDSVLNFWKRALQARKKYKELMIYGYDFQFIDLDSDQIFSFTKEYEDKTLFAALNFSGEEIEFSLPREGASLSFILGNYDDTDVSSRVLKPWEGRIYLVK", "chain of UniProt P49116 (whole entry, looked up)": "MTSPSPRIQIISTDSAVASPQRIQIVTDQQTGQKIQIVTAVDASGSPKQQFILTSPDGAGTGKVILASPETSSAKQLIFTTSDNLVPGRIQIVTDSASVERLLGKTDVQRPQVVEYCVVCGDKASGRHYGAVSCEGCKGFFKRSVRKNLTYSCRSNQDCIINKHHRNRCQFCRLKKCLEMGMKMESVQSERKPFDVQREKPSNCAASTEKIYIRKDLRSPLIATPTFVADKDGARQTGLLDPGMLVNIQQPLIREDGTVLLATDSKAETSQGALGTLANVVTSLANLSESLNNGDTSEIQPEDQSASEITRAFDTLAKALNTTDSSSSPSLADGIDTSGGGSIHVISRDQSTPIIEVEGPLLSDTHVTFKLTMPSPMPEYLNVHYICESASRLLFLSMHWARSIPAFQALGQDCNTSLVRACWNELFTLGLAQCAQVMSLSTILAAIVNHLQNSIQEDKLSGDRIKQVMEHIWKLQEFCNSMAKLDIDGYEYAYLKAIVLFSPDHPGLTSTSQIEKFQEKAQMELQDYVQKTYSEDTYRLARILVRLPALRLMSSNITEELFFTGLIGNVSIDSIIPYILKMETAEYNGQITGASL"}
{"Structure (SMILES)": "COc1cc(C(=O)CCO)ccc1O", "tested on": "MAL12", "test": "inhibitor", "conditions": "100 µg/mL, 0.4167 h, with: p-nitrophenyl glucoside substrate", "measurement": "inhibition", "value": "45.3 ± 2.94%"}
{"Structure (SMILES)": "Cc1cc(=O)oc2ccc(-c3cc(-c4cccc([N+](=O)[O-])c4)nc(N)n3)c(O)c12", "tested on": "MAL12", "test": "enzyme activity, inhibitor", "conditions": "concentration not given", "measurement": "inhibition", "value": "70.5 ± 1.23%"}
{"Structure (SMILES)": "COc1cccc(C2NCCc3cc(O)c(O)cc32)c1O (stereo not drawn)", "tested on": "MAL12", "test": "enzyme activity, inhibitor", "conditions": "100 µM, DMSO solvent, with: pNPG substrate", "measurement": "inhibition", "value": "37.2 ± 2.85%"}
{"Structure (SMILES)": "O=c1c(/C=N/NC(=S)NC2CCCCC2)coc2cc(F)ccc12", "tested on": "MAL12", "test": "enzyme activity, inhibitor", "conditions": "500 µM", "measurement": "inhibition", "value": "79.4%"}
{"Structure (SMILES)": "O=c1c(-c2ccc(OC(F)(F)F)cc2)coc2c(Cn3ccnc3)c(O)ccc12", "tested on": "MAL12", "test": "inhibitor", "conditions": "25 µM", "measurement": "inhibition", "value": "29.9%"}
{"Structure (SMILES)": "CNC(=S)N/N=C/c1coc2cc(F)ccc2c1=O", "tested on": "MAL12", "test": "enzyme activity, inhibitor", "conditions": "500 µM", "measurement": "inhibition", "value": "74.5%"}
{"Structure (SMILES)": "COc1cc(C2NCCc3cc(O)c(O)cc32)ccc1O (stereo not drawn)", "tested on": "MAL12", "test": "enzyme activity, inhibitor", "conditions": "100 µM, DMSO solvent, with: pNPG substrate", "measurement": "inhibition", "value": "76.4 ± 1.43%"}
{"Structure (SMILES)": "O=c1c(/C=N/NC(=S)Nc2ccc(F)cc2)coc2cc(F)ccc12", "tested on": "MAL12", "test": "enzyme activity, inhibitor", "conditions": "500 µM", "measurement": "inhibition", "value": "91.7%"}
{"Structure (SMILES)": "Oc1ccccc1Cn1cnc2ccccc21", "tested on": "MAL12", "test": "inhibitor", "conditions": "25 µM", "measurement": "inhibition", "value": "24.2%"}
{"Structure (SMILES)": "CCOC(=O)NCc1ccc(O)cc1", "tested on": "MAL12", "test": "inhibitor", "conditions": "100 µg/mL, 0.4167 h, with: p-nitrophenyl glucoside substrate", "measurement": "inhibition", "value": "28.2 ± 0.83%"}
{"Structure (SMILES)": "O=c1c(/C=N/NC(=S)Nc2ccc(Cl)cc2)coc2cc(F)ccc12", "tested on": "MAL12", "test": "enzyme activity, inhibitor", "conditions": "500 µM", "measurement": "inhibition", "value": "91.2%"}
{"Structure (SMILES)": "Nc1ccn([C@@H]2O[C@H](CO)[C@@H](O)[C@H]2O)c(=O)n1", "tested on": "Nuclear receptor subfamily 2 group C member 2, ligand-binding domain (Homo sapiens, UniProt P49116)", "test": "SPR imaging", "measurement": "Kd", "value": "0.0348 nM"}
{"Structure (SMILES)": "Oc1cc2c(cc1O)C(Cc1ccccc1)NCC2 (stereo not drawn)", "tested on": "MAL12", "test": "enzyme activity, inhibitor", "conditions": "100 µM, DMSO solvent, with: pNPG substrate", "measurement": "inhibition", "value": "72.9 ± 1.51%"}
{"Structure (SMILES)": "Oc1ccc(Cn2cnc3ccccc32)cc1", "tested on": "MAL12", "test": "inhibitor", "conditions": "25 µM", "measurement": "inhibition", "value": "19.4%"}
{"Structure (SMILES)": "CCCCCCCCCCCCCCCC1NCCc2cc(O)c(O)cc21 (stereo not drawn)", "tested on": "MAL12", "test": "enzyme activity, inhibitor", "conditions": "100 µM, DMSO solvent, with: pNPG substrate", "measurement": "inhibition", "value": "71.5 ± 1.08%"}
{"Structure (SMILES)": "Oc1cc(O)cc(/C=C/c2ccc(O)c(O)c2)c1", "tested on": "OCI-Ly1", "conditions": "1 µM, 120 h", "measurement": "viability", "value": "136%"}
{"Structure (SMILES)": "CCCCCCCCCCCCCCCCCC1NCCc2cc(O)c(O)cc21 (stereo not drawn)", "tested on": "MAL12", "test": "enzyme activity, inhibitor", "conditions": "100 µM, with: pNPG substrate", "measurement": "inhibition", "value": "58.1 ± 1.55%"}
{"Structure (SMILES)": "Cc1ccc(NC(=S)N/N=C/c2coc3cc(F)ccc3c2=O)c(C)c1", "tested on": "MAL12", "test": "enzyme activity, inhibitor", "conditions": "500 µM", "measurement": "inhibition", "value": "89.8%"}
{"Structure (SMILES)": "COc1cc(Cn2cnc3ccccc32)ccc1O", "tested on": "MAL12", "test": "inhibitor", "conditions": "25 µM", "measurement": "inhibition", "value": "10.9%"}
{"Structure (SMILES)": "COc1cc(C2NCCc3cc(O)c(O)cc32)cc(OC)c1O (stereo not drawn)", "tested on": "MAL12", "test": "enzyme activity, inhibitor", "conditions": "100 µM, DMSO solvent, with: pNPG substrate", "measurement": "inhibition", "value": "56.9 ± 1.14%"}
{"Structure (SMILES)": "O=c1c(/C=N/NC(=S)Nc2ccccc2C(F)(F)F)coc2cc(F)ccc12", "tested on": "MAL12", "test": "enzyme activity, inhibitor", "conditions": "500 µM", "measurement": "inhibition", "value": "90.1%"}
{"Structure (SMILES)": "COc1ccc(C2NCCc3cc(O)c(O)cc32)cc1O (stereo not drawn)", "tested on": "MAL12", "test": "enzyme activity, inhibitor", "conditions": "100 µM, DMSO solvent, with: pNPG substrate", "measurement": "inhibition", "value": "55.6 ± 1.29%"}
{"Structure (SMILES)": "Cc1ccc(-c2cc(-c3ccc4oc(=O)cc(C)c4c3O)nc(N)n2)cc1", "tested on": "MAL12", "test": "enzyme activity, inhibitor", "conditions": "concentration not given", "measurement": "inhibition", "value": "87.5 ± 1.24%"}
{"Structure (SMILES)": "Cc1cc(C)n(Cc2c(O)ccc3c(=O)c(C)c(C)oc23)n1", "tested on": "MAL12", "test": "inhibitor", "conditions": "25 µM", "measurement": "inhibition", "value": "14.2%"}
{"Structure (SMILES)": "CC(C)=CC1NCCc2cc(O)c(O)cc21 (stereo not drawn)", "tested on": "MAL12", "test": "enzyme activity, inhibitor", "conditions": "100 µM, DMSO solvent, with: pNPG substrate", "measurement": "inhibition", "value": "31 ± 2.47%"}
{"Structure (SMILES)": "CCCCCCCCCCCCCCNC(=O)/C=C/c1ccc(O)c(O)c1", "tested on": "MAL12", "test": "enzyme activity", "conditions": "20 µM, with: α-amylase present", "measurement": "inhibition", "value": "92.5 ± 6.85%"}
{"Structure (SMILES)": "O=c1c(/C=N/NC(=S)NCc2ccc(Cl)cc2)coc2cc(F)ccc12", "tested on": "MAL12", "test": "enzyme activity, inhibitor", "conditions": "500 µM", "measurement": "inhibition", "value": "91.8%"}
{"Structure (SMILES)": "Cc1cc(=O)oc2c(Cn3ccnc3)c(O)ccc12", "tested on": "MAL12", "test": "inhibitor", "conditions": "25 µM", "measurement": "inhibition", "value": "53.6%"}
{"Structure (SMILES)": "O=c1c(/C=N/NC(=S)NCCc2ccccc2)coc2cc(F)ccc12", "tested on": "MAL12", "test": "enzyme activity, inhibitor", "conditions": "500 µM", "measurement": "inhibition", "value": "90.4%"}
{"Structure (SMILES)": "NC(=O)NCc1ccc(O)cc1", "tested on": "MAL12", "test": "inhibitor", "conditions": "100 µg/mL, 0.4167 h, with: p-nitrophenyl glucoside substrate", "measurement": "inhibition", "value": "33.8 ± 3.58%"}
{"Structure (SMILES)": "O=c1c(O)c(-c2ccc(O)c(O)c2)oc2cc(O)cc(O)c12", "tested on": "MAL12", "test": "enzyme activity", "conditions": "concentration not given, with: p-nitrophenyl α-D-glucoside substrate", "measurement": "inhibition", "value": "98.7%"}
{"Structure (SMILES)": "Cc1cc(=O)oc2ccc(-c3cc(-c4cccc(Cl)c4)nc(N)n3)c(O)c12", "tested on": "MAL12", "test": "enzyme activity, inhibitor", "conditions": "concentration not given", "measurement": "inhibition", "value": "71.2 ± 1.23%"}
{"Structure (SMILES)": "COc1ccc(-c2c(C)oc3c(Cn4nc(C)cc4C)c(O)ccc3c2=O)cc1", "tested on": "MAL12", "test": "inhibitor", "conditions": "25 µM", "measurement": "inhibition", "value": "21.8%"}
{"Structure (SMILES)": "O=C([C@@H](Cc1cccc(C(F)(F)F)c1)NS(=O)(=O)c1cc(F)c2c(c1)CCNC2)N1CCCC1", "tested on": "OCI-Ly1", "conditions": "1 µM, 120 h", "measurement": "viability", "value": "94.3%"}
{"Structure (SMILES)": "Cc1cc(C)n(Cc2ccccc2O)n1", "tested on": "MAL12", "test": "inhibitor", "conditions": "25 µM", "measurement": "inhibition", "value": "< 0%"}
{"Structure (SMILES)": "O=Cc1ccc(O)cc1", "tested on": "MAL12", "test": "inhibitor", "conditions": "100 µg/mL, 0.4167 h, with: p-nitrophenyl glucoside substrate", "measurement": "inhibition", "value": "26.1 ± 3.9%"}
